Results from different studies.
AAK1: AP2-associated protein kinase 1 (AAK1, Homo sapiens, UniProt Q2M2I8)
UniProt Q2M2I8, sequence (whole entry, looked up): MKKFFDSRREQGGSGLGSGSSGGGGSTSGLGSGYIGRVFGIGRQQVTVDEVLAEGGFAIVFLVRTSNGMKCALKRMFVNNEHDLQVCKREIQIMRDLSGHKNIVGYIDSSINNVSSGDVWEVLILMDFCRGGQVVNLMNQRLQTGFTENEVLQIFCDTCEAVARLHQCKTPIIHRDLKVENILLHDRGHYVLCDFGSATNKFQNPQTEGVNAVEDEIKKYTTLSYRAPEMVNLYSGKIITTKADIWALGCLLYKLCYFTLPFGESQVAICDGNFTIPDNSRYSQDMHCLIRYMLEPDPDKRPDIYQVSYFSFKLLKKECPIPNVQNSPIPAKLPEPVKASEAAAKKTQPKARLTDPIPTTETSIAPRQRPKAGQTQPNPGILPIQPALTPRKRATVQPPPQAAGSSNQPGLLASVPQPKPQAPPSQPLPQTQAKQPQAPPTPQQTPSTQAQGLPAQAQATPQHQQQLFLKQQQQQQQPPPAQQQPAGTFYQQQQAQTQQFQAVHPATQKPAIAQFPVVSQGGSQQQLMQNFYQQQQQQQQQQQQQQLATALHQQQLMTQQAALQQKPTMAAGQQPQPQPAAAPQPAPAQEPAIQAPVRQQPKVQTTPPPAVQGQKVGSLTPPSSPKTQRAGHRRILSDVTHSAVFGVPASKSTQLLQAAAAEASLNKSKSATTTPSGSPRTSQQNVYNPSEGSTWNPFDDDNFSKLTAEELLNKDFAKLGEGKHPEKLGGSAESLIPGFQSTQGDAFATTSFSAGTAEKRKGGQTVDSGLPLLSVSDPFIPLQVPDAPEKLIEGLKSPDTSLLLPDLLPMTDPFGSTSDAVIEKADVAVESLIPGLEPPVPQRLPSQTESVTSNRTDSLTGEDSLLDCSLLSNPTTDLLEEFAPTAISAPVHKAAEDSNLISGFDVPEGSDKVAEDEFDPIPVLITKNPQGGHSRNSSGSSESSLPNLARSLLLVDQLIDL
RET: Proto-oncogene tyrosine-protein kinase receptor Ret (RET, Homo sapiens, UniProt P07949)
UniProt P07949, sequence (whole entry, looked up): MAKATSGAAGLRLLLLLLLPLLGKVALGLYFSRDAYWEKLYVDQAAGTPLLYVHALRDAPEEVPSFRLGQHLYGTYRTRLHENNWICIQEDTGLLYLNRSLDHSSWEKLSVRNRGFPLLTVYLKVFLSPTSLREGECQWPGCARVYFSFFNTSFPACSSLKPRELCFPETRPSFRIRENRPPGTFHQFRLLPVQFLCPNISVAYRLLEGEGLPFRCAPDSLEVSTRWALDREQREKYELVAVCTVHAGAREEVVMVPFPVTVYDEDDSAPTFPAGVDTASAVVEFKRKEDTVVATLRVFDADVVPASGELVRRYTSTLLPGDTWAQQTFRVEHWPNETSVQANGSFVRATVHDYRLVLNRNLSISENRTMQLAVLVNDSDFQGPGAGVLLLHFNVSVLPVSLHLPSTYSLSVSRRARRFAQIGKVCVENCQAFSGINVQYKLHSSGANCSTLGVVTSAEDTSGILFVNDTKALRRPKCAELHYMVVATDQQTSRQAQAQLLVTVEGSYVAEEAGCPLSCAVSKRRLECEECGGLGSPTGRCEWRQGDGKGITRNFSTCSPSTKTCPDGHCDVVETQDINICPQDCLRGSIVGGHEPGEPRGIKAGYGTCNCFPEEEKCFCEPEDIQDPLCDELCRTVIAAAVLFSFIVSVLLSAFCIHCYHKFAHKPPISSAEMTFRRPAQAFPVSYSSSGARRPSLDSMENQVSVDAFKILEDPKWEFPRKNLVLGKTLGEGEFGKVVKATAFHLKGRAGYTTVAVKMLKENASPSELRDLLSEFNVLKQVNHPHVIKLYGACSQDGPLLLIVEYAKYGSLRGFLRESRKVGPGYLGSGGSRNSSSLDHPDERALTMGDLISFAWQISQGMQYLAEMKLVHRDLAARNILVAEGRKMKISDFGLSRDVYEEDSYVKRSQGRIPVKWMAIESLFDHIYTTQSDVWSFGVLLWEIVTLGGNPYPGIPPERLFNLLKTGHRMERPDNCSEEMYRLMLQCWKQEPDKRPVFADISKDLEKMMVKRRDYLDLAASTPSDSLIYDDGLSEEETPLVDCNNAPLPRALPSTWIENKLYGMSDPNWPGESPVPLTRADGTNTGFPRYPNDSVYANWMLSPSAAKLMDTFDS
MPO: Myeloperoxidase (MPO, Homo sapiens, UniProt P05164)
UniProt P05164, sequence (whole entry, looked up): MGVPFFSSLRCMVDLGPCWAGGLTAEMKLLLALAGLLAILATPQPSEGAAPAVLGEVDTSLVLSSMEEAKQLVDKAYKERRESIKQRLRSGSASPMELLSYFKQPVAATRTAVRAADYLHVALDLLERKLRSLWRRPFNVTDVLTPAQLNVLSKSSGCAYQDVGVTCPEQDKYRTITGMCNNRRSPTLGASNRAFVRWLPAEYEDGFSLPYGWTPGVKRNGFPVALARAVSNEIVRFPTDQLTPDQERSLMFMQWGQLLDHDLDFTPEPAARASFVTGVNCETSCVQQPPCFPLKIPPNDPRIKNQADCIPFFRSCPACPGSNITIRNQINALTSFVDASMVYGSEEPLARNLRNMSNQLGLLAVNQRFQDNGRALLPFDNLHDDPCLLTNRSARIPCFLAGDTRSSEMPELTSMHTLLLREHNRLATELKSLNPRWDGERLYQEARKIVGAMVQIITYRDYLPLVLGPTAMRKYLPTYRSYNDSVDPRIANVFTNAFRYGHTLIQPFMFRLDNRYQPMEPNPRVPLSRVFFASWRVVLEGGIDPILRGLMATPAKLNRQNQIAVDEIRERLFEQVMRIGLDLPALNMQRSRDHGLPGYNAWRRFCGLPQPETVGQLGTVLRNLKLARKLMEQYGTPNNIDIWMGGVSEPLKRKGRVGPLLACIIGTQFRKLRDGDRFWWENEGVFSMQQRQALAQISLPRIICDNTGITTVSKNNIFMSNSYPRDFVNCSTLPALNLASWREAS
SLC2A1: Solute carrier family 2, facilitated glucose transporter member 1 (SLC2A1, Homo sapiens, UniProt P11166)
UniProt P11166, sequence (whole entry, looked up): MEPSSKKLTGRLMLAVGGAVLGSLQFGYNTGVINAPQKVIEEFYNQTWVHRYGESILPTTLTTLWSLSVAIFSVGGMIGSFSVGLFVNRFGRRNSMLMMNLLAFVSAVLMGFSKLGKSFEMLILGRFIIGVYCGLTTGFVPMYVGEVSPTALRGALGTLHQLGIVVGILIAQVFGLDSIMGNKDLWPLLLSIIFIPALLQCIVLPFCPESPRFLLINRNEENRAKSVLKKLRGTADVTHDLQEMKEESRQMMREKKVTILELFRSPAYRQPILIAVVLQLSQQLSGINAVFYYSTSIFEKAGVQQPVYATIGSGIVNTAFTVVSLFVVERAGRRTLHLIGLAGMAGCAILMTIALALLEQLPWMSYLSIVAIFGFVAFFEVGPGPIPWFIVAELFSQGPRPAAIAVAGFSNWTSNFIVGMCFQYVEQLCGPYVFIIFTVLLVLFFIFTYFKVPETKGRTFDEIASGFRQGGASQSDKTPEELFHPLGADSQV
MAPK3: Mitogen-activated protein kinase 3 (MAPK3, Homo sapiens, UniProt P27361)
UniProt P27361, sequence (whole entry, looked up): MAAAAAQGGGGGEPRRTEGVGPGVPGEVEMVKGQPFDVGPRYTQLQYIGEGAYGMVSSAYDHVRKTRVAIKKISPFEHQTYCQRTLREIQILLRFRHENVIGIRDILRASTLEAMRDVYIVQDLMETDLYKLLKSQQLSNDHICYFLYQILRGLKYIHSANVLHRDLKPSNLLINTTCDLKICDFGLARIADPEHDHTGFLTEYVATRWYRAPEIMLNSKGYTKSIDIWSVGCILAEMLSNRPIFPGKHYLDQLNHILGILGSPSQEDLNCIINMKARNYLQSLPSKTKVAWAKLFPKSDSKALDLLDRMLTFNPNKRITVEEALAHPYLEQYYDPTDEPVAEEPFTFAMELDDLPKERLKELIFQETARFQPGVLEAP
UniProt Q63531, sequence (whole entry, looked up): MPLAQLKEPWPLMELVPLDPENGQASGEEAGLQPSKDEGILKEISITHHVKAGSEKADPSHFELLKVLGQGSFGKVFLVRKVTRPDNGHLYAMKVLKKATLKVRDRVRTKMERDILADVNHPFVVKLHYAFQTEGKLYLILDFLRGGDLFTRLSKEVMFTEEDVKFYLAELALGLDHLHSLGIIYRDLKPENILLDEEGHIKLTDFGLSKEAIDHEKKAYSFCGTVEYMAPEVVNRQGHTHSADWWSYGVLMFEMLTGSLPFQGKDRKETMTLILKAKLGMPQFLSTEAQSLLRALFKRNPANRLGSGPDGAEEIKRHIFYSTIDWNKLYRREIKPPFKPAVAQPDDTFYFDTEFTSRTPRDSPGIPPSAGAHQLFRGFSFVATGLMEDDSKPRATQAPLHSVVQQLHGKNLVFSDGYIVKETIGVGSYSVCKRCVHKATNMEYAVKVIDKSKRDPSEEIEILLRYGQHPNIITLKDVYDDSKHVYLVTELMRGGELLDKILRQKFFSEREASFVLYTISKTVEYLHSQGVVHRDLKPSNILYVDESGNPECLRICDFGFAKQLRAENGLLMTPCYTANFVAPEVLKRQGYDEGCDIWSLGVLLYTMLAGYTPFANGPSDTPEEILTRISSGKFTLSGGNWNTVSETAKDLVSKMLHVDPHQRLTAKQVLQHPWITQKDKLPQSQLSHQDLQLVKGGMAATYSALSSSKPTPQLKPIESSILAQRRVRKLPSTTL
UniProt P07947, sequence (whole entry, looked up): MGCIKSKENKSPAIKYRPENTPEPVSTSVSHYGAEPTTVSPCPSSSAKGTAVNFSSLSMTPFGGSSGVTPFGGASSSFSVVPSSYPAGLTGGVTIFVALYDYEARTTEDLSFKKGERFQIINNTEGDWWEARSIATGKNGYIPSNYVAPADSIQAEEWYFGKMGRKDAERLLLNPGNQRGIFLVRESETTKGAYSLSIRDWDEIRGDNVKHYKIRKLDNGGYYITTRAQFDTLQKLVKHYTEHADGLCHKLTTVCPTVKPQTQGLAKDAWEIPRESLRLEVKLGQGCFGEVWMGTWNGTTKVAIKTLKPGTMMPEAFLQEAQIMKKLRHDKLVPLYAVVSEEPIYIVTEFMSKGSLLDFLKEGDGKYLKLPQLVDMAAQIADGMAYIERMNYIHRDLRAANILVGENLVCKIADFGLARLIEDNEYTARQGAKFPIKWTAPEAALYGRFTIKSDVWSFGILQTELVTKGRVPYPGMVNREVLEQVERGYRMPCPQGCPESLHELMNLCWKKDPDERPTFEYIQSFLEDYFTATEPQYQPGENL

SMILES	tested on	test	system	setting	endpoint	value
O=C(Nc1cccc(Nc2ncc(Br)c(NCCc3cnc[nH]3)n2)c1)N1CCCC1	AAK1	enzyme activity, inhibitor, radiometric	–	1 µM	remaining activity	5%
Cc1cccc(-n2ncc3c(O)c(C(=O)Nc4ccc(C)cc4F)c(=O)[nH]c32)c1	RET	enzyme activity, inhibitor, radiometric	–	0.1 µM	remaining activity	134%
C=CC(=O)N1CCC(COCC(=O)N2CCN(c3nc(-c4cnc(N)nc4C(F)F)nc(N4CCOC[C@@H]4C)n3)CC2)CC1	Aurora kinase C (AURKC, Homo sapiens, UniProt Q9UQB9)	binding, competition with immobilised ligand	–	1 µM	remaining binding	93%
NC/C(=C\F)COc1cccc(Cn2c(=S)[nH]c(=O)c3[nH]cnc32)c1	MPO	enzyme activity, inhibitor	–	1.25 µM	remaining activity	7.68%
COc1cc(-c2cncc3c2CN(C)Cc2cc(N4CCNCC4)ccc2-3)cc(OC)c1OC	NEK2 (Homo sapiens, UniProt P51955)	enzyme activity, inhibitor	–	1 µM	remaining activity	92%
Cc1cc([C@@H](C)Nc2ccccc2C(=O)O)c2nc(N3CCC(F)(F)CC3)c(C#N)c(=O)n2c1	PI4K2A (Homo sapiens, UniProt Q9BTU6)	enzyme activity, inhibitor, ADP detection	–	10 µM	remaining activity	98%
NS(=O)(=O)c1ccc(CNc2nc(Nc3cccc(CN4CCOCC4)c3)ncc2C2CC2)cc1	AAK1	enzyme activity, inhibitor, radiometric	–	1 µM	remaining activity	70%
COc1ccc(Cl)cc1-c1cc(=O)[nH]c(=S)n1CC(N)=O	MPO	enzyme activity, inhibitor	–	2.5 µM	remaining activity	22.9%
CC(=NNC(=O)c1ccncc1)c1ccc(Nc2nnc(-c3ccc(Cl)cc3)c3ccccc23)cc1	HepG2	cell growth or viability, MTT	–	78 nM, 24 h	viability	96.8%
C/C(=N\O)c1ccc(-c2ccc(O)c(Cl)c2)c(Cl)c1O	SLC2A1	transporter uptake, inhibitor, radiometric	NCI-H1299	30 µM	remaining activity	9%
O=c1nc(N2CCN(CC3CCCCC3)CC2)sc2c([N+](=O)[O-])cc(C(F)(F)F)cc12	–	–	CD-1 mouse, lung	intravenous, 10 mg/kg, 2 h	concentration	1410 ng/mL
CC(=NNC(=S)Nc1ccccc1)c1ccc(Nc2nnc(-c3ccc(Cl)cc3)c3ccccc23)cc1	HepG2	cell growth or viability, MTT	–	2.5 µM, 24 h	viability	22.5%
Cc1cccc(N(O)N=Nc2ccc(S(=O)(=O)Nc3cc(C)on3)cc2)c1	–	DPPH scavenging, absorbance	–	240 µg/mL	inhibition	36.3%
CNc1ncc2c(/C=C/C(=O)N3CCC(OC)CC3)nn(Cc3cccc(C(F)(F)F)c3)c2n1	YES1 (Homo sapiens, UniProt P07947)	enzyme activity, inhibitor, radiometric	–	1 µM	remaining activity	85%
O=C(Nc1ccc(NC(=O)c2ccoc2)cc1C(F)(F)F)Nc1ccc(NC(=O)c2ccoc2)cc1C(F)(F)F	RET	enzyme activity, inhibitor, radiometric	–	0.1 µM	remaining activity	113%
CC[C@H](C)[C@H](NC(=O)[C@H](CCC(N)=O)NC(=O)[C@H](CC(C)C)NC(=O)[C@H](CCSC)NC(=O)[C@H](CCCCN)NC(=O)[C@H](CO)NC(=O)[C@H](CO)NC(=O)[C@H](CCSC)NC(=O)[C@H](CC(C)C)NC(=O)[C@H](CC(N)=O)NC(=O)[C@@H](NC(=O)[C@@H](NC(=O)[C@H](CO)NC(=O)[C@H](CC(C)C)NC(=O)[C@H](CS)NC(=O)[C@H](CCCNC(=N)N)NC(=O)[C@H](CC(=O)O)NC(=O)[C@H](Cc1c[nH]c2ccccc12)NC(=O)[C@H](Cc1ccccc1)NC(=O)[C@H](C)NC(=O)[C@H](CCC(=O)O)NC(=O)[C@@H](N)CCCCN)C(C)C)[C@@H](C)CC)C(=O)N[C@@H](CC(N)=O)C(=O)N[C@@H](C)C(=O)O	MAPK3	enzyme activity, inhibitor, radiometric	–	250 µM, 20 min	remaining activity	89%

SMILES	tested on	test	system	setting	endpoint	value
COc1ccc(-c2ccc(/C(C)=N/O)c(O)c2Cl)cc1C	SLC2A1	transporter uptake, inhibitor, radiometric	NCI-H1299	30 µM	remaining activity	78%
O=C(Cn1c(=O)n(CC2CCCO2)c(=O)c2ccc(C(=O)NCCc3ccccc3)cc21)Nc1ccc(F)c(Cl)c1 (stereo not shown)	RET	enzyme activity, inhibitor, radiometric	–	0.1 µM	remaining activity	116%
Cc1cccc(N(O)N=Nc2ccc(S(=O)(=O)Nc3nccs3)cc2)c1	–	DPPH scavenging, absorbance	–	300 µg/mL	inhibition	39%
Cc1ccc2c(=O)c(C(=O)Nc3ccc(C)c(C)c3)cn(CC(=O)NC3CCCC3)c2n1	RET	enzyme activity, inhibitor, radiometric	–	10 µM	remaining activity	95.9%
N=C(N)c1ccc(-c2ccc(-c3ccc(C(=N)N)c(F)c3)o2)cc1F	PRMT5 (Homo sapiens, UniProt O14744)	enzyme activity, inhibitor, radiometric	–	20 µM	remaining activity	101%
COc1cccc(-c2n[nH]c(SCc3ccccn3)n2)c1OC	–	–	female Sprague-Dawley rat, plasma	oral, 30 mg/kg, 1 h, single dose	concentration	22400 ng/mL
CC(C)OCCn1c(=S)[nH]c(=O)c2[nH]ccc21	MPO	enzyme activity, inhibitor	–	78 nM	remaining activity	103%
COc1ccc(Cl)cc1NC(=O)Nc1ccc2nc(NC(=O)c3ccccc3)sc2c1	RET	enzyme activity, inhibitor, radiometric	–	0.1 µM	remaining activity	141%
CCCCC(=O)Nc1ccc(-c2ccc3ncn(CCC)c(=O)c3c2)cn1	Ribosomal protein S6 kinase alpha-6, N-terminal kinase domain (RPS6KA6, Homo sapiens, UniProt Q9UK32)	binding, competition with immobilised ligand	–	0.5 µM	remaining binding	100%
O=C(Nc1ccc(NC(=O)c2ccco2)cc1C(F)(F)F)Nc1ccc(NC(=O)c2ccco2)cc1C(F)(F)F	RET	enzyme activity, inhibitor, radiometric	–	10 µM	remaining activity	103%
C1=C/COCc2cc(ccc2OCCN2CCCC2)Nc2nccc(n2)-c2cccc(c2)COC/1	MARK4 (Homo sapiens, UniProt Q96L34)	cell-free assay	–	0.1 µM	remaining signal	100%
C/C(=N\O)c1ccc(-c2ccc(C(F)(F)F)cc2)c(Cl)c1O	SLC2A1	transporter uptake, inhibitor, radiometric	NCI-H1299	30 µM	remaining activity	100%
COc1cc(NC(=O)Nc2cc(C)c3nc(NC(=O)c4ccccc4)sc3c2)cc(OC)c1	RET	enzyme activity, inhibitor, radiometric	–	10 µM	remaining activity	88.3%
CCCOc1ccc(OC)c(F)c1C(=O)c1ccc(C(=O)N[C@@H]2CNC[C@H]2NC(=O)c2ccc3[nH]ncc3c2)cc1	Rps6ka1 (Rattus norvegicus, UniProt Q63531)	enzyme activity, inhibitor	–	10 µM	remaining activity	-3%
CC[C@H](C)[C@H](NC(=O)[C@H](CCC(N)=O)NC(=O)[C@@H](NC(=O)[C@H](CCSC)NC(=O)[C@H](CCCCN)NC(=O)[C@H](CO)NC(=O)[C@@H](NC(=O)[C@H](CCSC)NC(=O)[C@H](CC(C)C)NC(=O)[C@H](CC(N)=O)NC(=O)[C@@H](NC(=O)[C@@H](NC(=O)[C@H](CO)NC(=O)[C@H](CC(C)C)NC(=O)[C@H](C)NC(=O)[C@H](CCCNC(=N)N)NC(=O)[C@H](CCC(=O)O)NC(=O)[C@H](Cc1ccc(O)cc1)NC(=O)[C@H](Cc1ccccc1)NC(=O)[C@H](C)NC(=O)[C@H](CC(N)=O)NC(=O)[C@@H](N)CCCCN)[C@@H](C)CC)[C@@H](C)CC)[C@@H](C)O)C(C)C)C(=O)N[C@@H](CC(N)=O)C(=O)N[C@H](C(=O)O)C(C)C	MAPK3	enzyme activity, inhibitor, radiometric	–	1 µM, 20 min	remaining activity	101%

Excerpt of the above:
SMILES	tested on	test	system	setting	endpoint	value
CC(=NNC(=S)Nc1ccccc1)c1ccc(Nc2nnc(-c3ccc(Cl)cc3)c3ccccc23)cc1	HepG2	cell growth or viability, MTT	–	2.5 µM, 24 h	viability	22.5%
Cc1cccc(N(O)N=Nc2ccc(S(=O)(=O)Nc3cc(C)on3)cc2)c1	–	DPPH scavenging, absorbance	–	240 µg/mL	inhibition	36.3%
CNc1ncc2c(/C=C/C(=O)N3CCC(OC)CC3)nn(Cc3cccc(C(F)(F)F)c3)c2n1	YES1 (Homo sapiens, UniProt P07947)	enzyme activity, inhibitor, radiometric	–	1 µM	remaining activity	85%
